Results gathered from unrelated publications.
Each line is one published result; not all experiments were run side by side. Numbers after ± are the reported error.
Cell line: A498

Structure (SMILES)	observed	method	concentration	time	reference	measurement	result
CC(=C(c1ccc(O)cc1)c1ccc(Cl)cc1)c1ccc(Cl)cc1	cell growth or viability	–	–	–	–	GI50	3.12 µM
NC1CCCCC1N.O=C(CCCc1ccccc1)[O][Pt]1([O]C(=O)CCCc2ccccc2)[O]C(=O)C(=O)[O]1	cell growth	–	–	72 h	–	IC50	9.32 ± 1.07 µM
COc1cc(CNC(=O)C[C@H](C)CCC=C(C)C)ccc1OCc1cn(-c2cccc(Cl)c2)nn1	–	SRB	10 µM	48 h	–	growth percent	142%
CC/C=C\C/C=C\C/C=C\C/C=C\C/C=C\C/C=C\CCC(=O)Nc1ccn(C2OC(CO)C(O)C2(F)F)c(=O)n1 (stereo not shown)	–	NCI60 screen	–	–	–	TGI	16.1 µM
N.N.O=C(CCCc1ccccc1)[O][Pt]([Cl])([Cl])[O]C(=O)CCCc1ccccc1	cell growth	–	–	72 h	–	IC50	0.43 ± 0.02 µM
COc1cc(CNC(=O)C[C@H](C)CCC=C(C)C)ccc1OCc1cn(-c2ccc(F)cc2)nn1	–	SRB	10 µM	48 h	–	growth percent	136%
O=C([O][Ti+2][O]C(=O)c1ccc([P+]([Au-][Cl])(c2ccccc2)c2ccccc2)cc1)c1ccc([P+]([Au-][Cl])(c2ccccc2)c2ccccc2)cc1.c1cc[cH-]c1.c1cc[cH-]c1	cell viability	XTT	–	72 h	–	IC50	6.9 µM
CC(=O)OC[C@H]1O[C@@H](Sc2sc(C(=O)c3ccc(C)cc3)c(N)c2-c2nc3ccccc3s2)[C@H](OC(C)=O)[C@@H](OC(C)=O)[C@@H]1OC(C)=O	–	SRB	10 µM	48 h	untreated	growth	98.9%
COc1cc(CNC(=O)C[C@H](C)CCC=C(C)C)ccc1OCc1cn(-c2ccccc2F)nn1	–	SRB	10 µM	48 h	–	growth percent	103%
O=C(O)c1ccc([P+]([Au-][Cl])(c2ccccc2)c2ccccc2)cc1	cell viability	XTT	–	24 h	–	IC50	36.1 µM
O=C1CS/C(=N\N=C2/C(=O)N(CCn3ncc4c(=O)[nH]cnc43)c3ccc(Cl)cc32)N1	cell growth or viability	SRB	–	72 h	–	IC50	93.3 µM
COc1cc(CNC(=O)C[C@H](C)CCC=C(C)C)ccc1OCc1cn(-c2ccccc2)nn1	–	SRB	10 µM	48 h	–	growth percent	92.2%
CCCC(CCC)C(=O)[O][Pt]1([OH])[O]C(=O)C(=O)[O]1.NC1CCCCC1N	cell growth	–	–	72 h	–	IC50	21.1 ± 3.07 µM
COc1ccc2c(c1)/C(=N\Nc1nnc3n1N=C(c1ccccc1)CS3)C(=O)N2	cell growth or viability	SRB	10 µM	–	–	inhibition	23%
CC(=O)[O][Pt]([Cl])([Cl])[O]C(=O)CCCc1ccccc1.N.N	cell growth	–	–	72 h	–	IC50	8.42 ± 1.47 µM
O=C1Nc2ccccc2/C1=N\Nc1nnc2n1N=C(c1ccc(Cl)cc1)CS2	cell growth or viability	SRB	10 µM	–	–	inhibition	18%
COc1cc(CNC(=O)C[C@H](C)CCC=C(C)C)ccc1OCc1cn(-c2ccc(Br)cc2)nn1	–	SRB	10 µM	48 h	–	growth percent	105%
CCCC(CCC)C(=O)[O][Pt]([Cl])([Cl])[O]C(=O)C(CCC)CCC.N.N	cell growth	–	–	72 h	–	IC50	2.43 ± 0.72 µM
O=C1C(=NN=c2[nH]ccs2)c2cc(Cl)ccc2N1CCn1ncc2c(=O)[nH]cnc21	cell growth or viability	SRB	–	72 h	–	IC50	5.13 µM

Repeated from above:
Structure (SMILES)	observed	method	concentration	time	reference	measurement	result
O=C1CS/C(=N\N=C2/C(=O)N(CCn3ncc4c(=O)[nH]cnc43)c3ccc(Cl)cc32)N1	cell growth or viability	SRB	–	72 h	–	IC50	93.3 µM
COc1cc(CNC(=O)C[C@H](C)CCC=C(C)C)ccc1OCc1cn(-c2ccccc2)nn1	–	SRB	10 µM	48 h	–	growth percent	92.2%
CCCC(CCC)C(=O)[O][Pt]1([OH])[O]C(=O)C(=O)[O]1.NC1CCCCC1N	cell growth	–	–	72 h	–	IC50	21.1 ± 3.07 µM
